Results gathered from unrelated publications.
Each line is one published result; not all experiments were run side by side.
Organism: Escherichia coli

| SMILES | assay | test system | conditions | scale | endpoint | result |
| --- | --- | --- | --- | --- | --- | --- |
| CC(C)C[C@@H]1NC(=O)[C@H](CCCNC(=N)N)NC(=O)[C@H](CCCNC(=N)N)NC(=O)[C@@H](NC(=O)[C@@H](N)CCC(=O)O)CSSC[C@@H](C(=O)N[C@@H](CCCNC(=N)N)C(=O)NCC(=O)N[C@@H](CCCNC(=N)N)C(N)=O)NC(=O)[C@H](Cc2ccc(O)cc2)NC(=O)[C@H]([C@@H](C)O)NC(=O)[C@H](C(C)C)NC(=O)[C@H](Cc2c[nH]c3ccccc23)NC(=O)[C@H](CCCNC(=N)N)NC(=O)CNC(=O)[C@H](CCCCN)NC(=O)[C@H](Cc2ccc(O)cc2)NC(=O)[C@H](Cc2c[nH]c3ccccc23)NC1=O | bacterial growth | DH5α | 50% growth inhibition | – | IC50 | 72 µM |
| CC(C)C[C@H](NC(=O)[C@H](CCN)NC(=O)[C@H](CCN)NC(=O)[C@@H](Cc1ccccc1)NC(=O)[C@H](CC(C)C)NC(=O)[C@H](CCN)NC(=O)[C@H](CCN)NC(=O)[C@@H](CCN)NC(=O)CCSCCOC(=O)c1ccccc1)C(N)=O | – | ATCC 10546 | 24 h, 37 °C | – | MBC | 16 µM |
| O=C(O)c1ncsc1-c1ccccc1 | – | DH5α with VIM-2 plasmid | 100 µg/mL, with: meropenem | – | MIC of meropenem | 0.25 µg/mL |
| C[n+]1nn(CCCCCCN2C(=O)C=CC2=O)cc1COCCCCCCN1C(=O)C=CC1=O | growth, turbidity OD600 | ΔtolC | 24 h | – | IC50 | > 100 µM |
| CC[C@H](C)[C@H](NC(=O)[C@H](CC(C)C)NC(=O)[C@H](CC(=O)O)NC(=O)[C@H](CCCNC(=N)N)NC(=O)[C@H](Cc1c[nH]c2ccccc12)NC(=O)[C@@H](N)CC(C)C)C(=O)N[C@@H](CS)C(=O)N[C@@H](CC(C)C)C(=O)N[C@@H](CS)C(=O)N[C@@H](CCCNC(=N)N)C(=O)N[C@@H](CC(N)=O)C(=O)N[C@@H](CCCNC(=N)N)C(=O)N[C@@H](CCCNC(=N)N)C(=O)N[C@@H](CS)C(=O)N[C@@H](CC(N)=O)C(=O)N[C@@H](CCCNC(=N)N)C(=O)NCC(=O)N[C@@H](CCC(N)=O)C(=O)N[C@@H](CC(C)C)C(=O)N[C@@H](Cc1ccccc1)C(=O)N1CCC[C@H]1C(=O)NCC(=O)N[C@@H](Cc1c[nH]c2ccccc12)C(=O)N[C@@H](CS)C(=O)N1CCC[C@H]1C(=O)NCC(=O)N[C@@H](Cc1c[nH]c2ccccc12)C(=O)N[C@@H](Cc1c[nH]c2ccccc12)C(=O)N[C@@H](CC(C)C)C(=O)N[C@@H](CCCNC(=N)N)C(=O)N[C@@H](CS)C(=O)N[C@@H](CS)C(=O)N[C@@H](CCCNC(=N)N)C(=O)N[C@@H](CCCNC(=N)N)C(N)=O | colony count | – | 30 µg/mL, 2 h, 37 °C, pretreated pepsin gastric fluid, with: pepsin 1 mg/mL | – | bactericidal rate | ~95% |
| CO[C@@H](C(N)=O)[C@H](NC(=O)c1ccc(NC(=O)[C@@H](N)Cc2ccccc2)cc1)C(=O)Nc1ccc(C(=O)Nc2ccc(C(=O)Nc3ccc(C(=O)O)c(O)c3OC(C)C)c(O)c2OC(C)C)cc1 | – | clones expressing transporters | concentration not given | reference: empty vector | MIC fold change | ≤ 4 fold |
| CC[C@H](C)[C@H](N)C(=O)N[C@@H](CC(C)C)C(=O)N[C@@H](CO)C(=O)N[C@@H](C)C(=O)N[C@@H](C)C(=O)N[C@@H](Cc1ccc(O)cc1)C(=O)N[C@@H](CO)C(=O)NCC(=O)N[C@H](C(=O)N[C@H](C(=O)N[C@@H](CO)C(=O)N[C@@H](CC(C)C)C(=O)N[C@H](C(=O)NCCCCCC(=O)N[C@@H](Cc1c[nH]c2ccccc12)C(N)=O)[C@@H](C)CC)[C@@H](C)CC)[C@@H](C)CC | – | K-12 MG1655, MHB | concentration not given, 37 °C | reference: untreated | relative growth rate | -0.00585 |
| CC[C@H](C)[C@H](NC(=O)[C@H](Cc1c[nH]c2ccccc12)NC(=O)c1ccccc1)C(=O)N[C@@H](CCCNC(=N)N)C(=O)N[C@@H](Cc1ccc(O)cc1)C(=O)N[C@@H](CCCCN)C(=O)N[C@@H](Cc1c[nH]c2ccccc12)C(=O)N[C@H](CCCNC(=N)N)C(=O)N[C@@H](CCCNC(=N)N)C(=O)N[C@@H](CCCCN)C(=O)N[C@@H](CCCCN)C(=O)N[C@H](C(=O)N[C@@H](CCCNC(=N)N)C(=O)N[C@@H](Cc1ccc(O)cc1)C(=O)N[C@@H](Cc1c[nH]c2ccccc12)C(=O)N[C@H](C(=O)NCC(=O)N1CCC[C@H]1C(N)=O)[C@@H](C)O)C(C)C | growth | DH5α | 16 h, 37 °C | – | IC50 | 15.8 µM |
| CN(C)S(=O)(=O)c1ccc(S(=O)(=O)N2CCC(n3c(=O)[nH]c4ccccc43)CC2)cc1 | – | Keio wild type | concentration not given, 48 h | – | streptomycin concentration | 3.92 µg/mL |
| COc1ccc2c(c1OC)C[NH+]1CCc3cc4c(cc3C1C2)OCO4.[Cl][Fe-]([Cl])([Cl])[Cl] (stereo not shown) | – | – | 24 h, 37 °C | – | MBC | > 1600 µM |
| O=C1C=CC(=O)N1CCCCOCc1cn(CCCCN2C(=O)C=CC2=O)nn1 | growth, turbidity OD600 | ΔtolC | 24 h | – | IC50 | > 100 µM |
| CCCC(=O)OCCSC[C@H](N)C(=O)N[C@H](CCN)C(=O)N[C@@H](CCN)C(=O)N[C@@H](CCN)C(=O)N[C@@H](CC(C)C)C(=O)N[C@H](Cc1ccccc1)C(=O)N[C@@H](CCN)C(=O)N[C@@H](CCN)C(=O)N[C@@H](CC(C)C)C(N)=O | – | ATCC 10546 | 24 h, 37 °C | – | MBC | 16 µM |
| C=C(C)C(=O)NCCCCOCc1cn(CCCCNC(=O)C(=C)C)nn1 | growth, turbidity OD600 | ΔtolC | 24 h | – | IC50 | > 100 µM |
| CC[C@H](C)[C@H](NC(=O)[C@H](CCCCN)NC(=O)[C@H](CCCCN)NC(=O)[C@H](Cc1ccccc1)NC(=O)[C@H](Cc1ccccc1)NC(=O)[C@H](CCCCN)NC(=O)[C@H](CCCCN)NC(=O)[C@H](Cc1ccccc1)NC(=O)[C@H](CCCNC(=N)N)NC(=O)[C@@H](N)CCCCN)C(=O)N[C@@H](CCCCN)C(=O)N[C@@H](CCCCN)C(=O)N[C@@H](CO)C(=O)N[C@H](C(=O)N[C@@H](CCCCN)C(=O)N[C@@H](CCCCN)C(=O)N[C@@H](CCCNC(=N)N)C(=O)N[C@H](C(=O)N[C@@H](CCCCN)C(=O)N[C@@H](CCCCN)C(=O)N[C@@H](CC(C)C)C(=O)N[C@@H](Cc1ccccc1)C(=O)N[C@@H](CCCCN)C(=O)N[C@@H](CCCCN)C(=O)N1CCC[C@H]1C(=O)N[C@@H](CCCNC(=N)N)C(=O)N[C@H](C(=O)N[C@H](C(=O)N1CCC[C@H]1C(=O)N[C@H](C(=O)N[C@@H](CO)C(=O)N[C@H](C(=O)N1CCC[C@H]1C(=O)N[C@@H](Cc1ccccc1)C(=O)O)[C@@H](C)CC)[C@@H](C)CC)[C@@H](C)CC)C(C)C)C(C)C)C(C)C | – | E27 clinical isolate | 20 h | – | MBC | 4 µg/mL |
| C#CCN1C(=O)C(CC#C)(C(=O)OCC)Oc2ccccc21 (stereo not shown) | – | BL21(DE3) | 100 µM | – | growth inhibition | no inhibition |
| CC[C@H](C)CCCCC(=O)N[C@@H](CCN)C(=O)N[C@H](C(=O)N[C@@H](CCN)C(=O)N[C@H]1CCNC(=O)[C@H]([C@@H](C)O)NC(=O)[C@H](CCN)NC(=O)[C@H](CCN)NC(=O)[C@H](CC(C)C)NC(=O)[C@@H](CC(C)C)NC(=O)[C@H](CCN)NC1=O)[C@@H](C)O | daily serial passaging | ATCC 8739 | highest sub-MIC, 18 days | reference: initial MIC | MIC fold change | 2.37 |
| C=CS(=O)(=O)NCCCCOCc1cn(CCCCNS(=O)(=O)C=C)nn1 | growth, turbidity OD600 | ΔtolC | 24 h | – | IC50 | > 100 µM |
| COc1c(NC(=O)c2ccc(NC(=O)[C@H](CC#N)NC(=O)c3ccc(NC(=O)/C(C)=C/c4ccc(O)cc4)cc3)c(OC)c2O)ccc(C(=O)Nc2ccc(C(=O)O)cc2)c1O | – | clones expressing hydrolases | concentration not given | reference: empty vector | MIC fold change | 4 fold |
| C[n+]1nn(CCCCCCCCN2C(=O)C=CC2=O)cc1COCCCCCCCCN1C(=O)C=CC1=O | growth, turbidity OD600 | ΔtolC | 24 h | – | IC50 | > 100 µM |
| C#CCCCC(=O)N[C@H]1CCOC1=O | LuxR reporter, antagonist | DH5α sensor strain | 20 µM, with: OHHL 200 nM | – | inhibition | 69% |
| C=CS(=O)(=O)NCCCCCCCCOCc1cn(CCCCCCCCNS(=O)(=O)C=C)n[n+]1C | growth, turbidity OD600 | ΔtolC | 24 h | – | IC50 | > 100 µM |
| C[C@H](N)[C@@H](CCCCCCCCCCCCCCC(=O)CCCCCCC[C@@H](O)[C@@H](C)N)O[C@@H]1O[C@H](CO)[C@H](O)[C@H](O)[C@H]1O | microbial growth, resazurin | ATCC10536 | 50 µM | – | inhibition | 99% |

A few entries again:
| SMILES | assay | test system | conditions | scale | endpoint | result |
| --- | --- | --- | --- | --- | --- | --- |
| C=CS(=O)(=O)NCCCCCCCCOCc1cn(CCCCCCCCNS(=O)(=O)C=C)n[n+]1C | growth, turbidity OD600 | ΔtolC | 24 h | – | IC50 | > 100 µM |
| CC[C@H](C)CCCCC(=O)N[C@@H](CCN)C(=O)N[C@H](C(=O)N[C@@H](CCN)C(=O)N[C@H]1CCNC(=O)[C@H]([C@@H](C)O)NC(=O)[C@H](CCN)NC(=O)[C@H](CCN)NC(=O)[C@H](CC(C)C)NC(=O)[C@@H](CC(C)C)NC(=O)[C@H](CCN)NC1=O)[C@@H](C)O | daily serial passaging | ATCC 8739 | highest sub-MIC, 18 days | reference: initial MIC | MIC fold change | 2.37 |
| CC[C@H](C)[C@H](NC(=O)[C@H](Cc1c[nH]c2ccccc12)NC(=O)c1ccccc1)C(=O)N[C@@H](CCCNC(=N)N)C(=O)N[C@@H](Cc1ccc(O)cc1)C(=O)N[C@@H](CCCCN)C(=O)N[C@@H](Cc1c[nH]c2ccccc12)C(=O)N[C@H](CCCNC(=N)N)C(=O)N[C@@H](CCCNC(=N)N)C(=O)N[C@@H](CCCCN)C(=O)N[C@@H](CCCCN)C(=O)N[C@H](C(=O)N[C@@H](CCCNC(=N)N)C(=O)N[C@@H](Cc1ccc(O)cc1)C(=O)N[C@@H](Cc1c[nH]c2ccccc12)C(=O)N[C@H](C(=O)NCC(=O)N1CCC[C@H]1C(N)=O)[C@@H](C)O)C(C)C | growth | DH5α | 16 h, 37 °C | – | IC50 | 15.8 µM |
